Results pooled from the literature.
Protocols differ between the studies behind these lines. Numbers after ± are the reported error.
Cacna1b with α2δ, β3 subunits: Voltage-dependent N-type calcium channel subunit alpha-1B, with α2δ, β3 subunits (Cacna1b, Rattus norvegicus, UniProt Q02294)
Spike glycoprotein Beta variant: Spike glycoprotein, Beta variant (Severe acute respiratory syndrome coronavirus 2, UniProt P0DTC2)

By UniProt entry, the sequences of proteins in these tests, tags left out. Where a name states a change or a piece, a line headed by the entry shows the natural chain unless it says otherwise.
UniProt Q02294, whole entry, looked up: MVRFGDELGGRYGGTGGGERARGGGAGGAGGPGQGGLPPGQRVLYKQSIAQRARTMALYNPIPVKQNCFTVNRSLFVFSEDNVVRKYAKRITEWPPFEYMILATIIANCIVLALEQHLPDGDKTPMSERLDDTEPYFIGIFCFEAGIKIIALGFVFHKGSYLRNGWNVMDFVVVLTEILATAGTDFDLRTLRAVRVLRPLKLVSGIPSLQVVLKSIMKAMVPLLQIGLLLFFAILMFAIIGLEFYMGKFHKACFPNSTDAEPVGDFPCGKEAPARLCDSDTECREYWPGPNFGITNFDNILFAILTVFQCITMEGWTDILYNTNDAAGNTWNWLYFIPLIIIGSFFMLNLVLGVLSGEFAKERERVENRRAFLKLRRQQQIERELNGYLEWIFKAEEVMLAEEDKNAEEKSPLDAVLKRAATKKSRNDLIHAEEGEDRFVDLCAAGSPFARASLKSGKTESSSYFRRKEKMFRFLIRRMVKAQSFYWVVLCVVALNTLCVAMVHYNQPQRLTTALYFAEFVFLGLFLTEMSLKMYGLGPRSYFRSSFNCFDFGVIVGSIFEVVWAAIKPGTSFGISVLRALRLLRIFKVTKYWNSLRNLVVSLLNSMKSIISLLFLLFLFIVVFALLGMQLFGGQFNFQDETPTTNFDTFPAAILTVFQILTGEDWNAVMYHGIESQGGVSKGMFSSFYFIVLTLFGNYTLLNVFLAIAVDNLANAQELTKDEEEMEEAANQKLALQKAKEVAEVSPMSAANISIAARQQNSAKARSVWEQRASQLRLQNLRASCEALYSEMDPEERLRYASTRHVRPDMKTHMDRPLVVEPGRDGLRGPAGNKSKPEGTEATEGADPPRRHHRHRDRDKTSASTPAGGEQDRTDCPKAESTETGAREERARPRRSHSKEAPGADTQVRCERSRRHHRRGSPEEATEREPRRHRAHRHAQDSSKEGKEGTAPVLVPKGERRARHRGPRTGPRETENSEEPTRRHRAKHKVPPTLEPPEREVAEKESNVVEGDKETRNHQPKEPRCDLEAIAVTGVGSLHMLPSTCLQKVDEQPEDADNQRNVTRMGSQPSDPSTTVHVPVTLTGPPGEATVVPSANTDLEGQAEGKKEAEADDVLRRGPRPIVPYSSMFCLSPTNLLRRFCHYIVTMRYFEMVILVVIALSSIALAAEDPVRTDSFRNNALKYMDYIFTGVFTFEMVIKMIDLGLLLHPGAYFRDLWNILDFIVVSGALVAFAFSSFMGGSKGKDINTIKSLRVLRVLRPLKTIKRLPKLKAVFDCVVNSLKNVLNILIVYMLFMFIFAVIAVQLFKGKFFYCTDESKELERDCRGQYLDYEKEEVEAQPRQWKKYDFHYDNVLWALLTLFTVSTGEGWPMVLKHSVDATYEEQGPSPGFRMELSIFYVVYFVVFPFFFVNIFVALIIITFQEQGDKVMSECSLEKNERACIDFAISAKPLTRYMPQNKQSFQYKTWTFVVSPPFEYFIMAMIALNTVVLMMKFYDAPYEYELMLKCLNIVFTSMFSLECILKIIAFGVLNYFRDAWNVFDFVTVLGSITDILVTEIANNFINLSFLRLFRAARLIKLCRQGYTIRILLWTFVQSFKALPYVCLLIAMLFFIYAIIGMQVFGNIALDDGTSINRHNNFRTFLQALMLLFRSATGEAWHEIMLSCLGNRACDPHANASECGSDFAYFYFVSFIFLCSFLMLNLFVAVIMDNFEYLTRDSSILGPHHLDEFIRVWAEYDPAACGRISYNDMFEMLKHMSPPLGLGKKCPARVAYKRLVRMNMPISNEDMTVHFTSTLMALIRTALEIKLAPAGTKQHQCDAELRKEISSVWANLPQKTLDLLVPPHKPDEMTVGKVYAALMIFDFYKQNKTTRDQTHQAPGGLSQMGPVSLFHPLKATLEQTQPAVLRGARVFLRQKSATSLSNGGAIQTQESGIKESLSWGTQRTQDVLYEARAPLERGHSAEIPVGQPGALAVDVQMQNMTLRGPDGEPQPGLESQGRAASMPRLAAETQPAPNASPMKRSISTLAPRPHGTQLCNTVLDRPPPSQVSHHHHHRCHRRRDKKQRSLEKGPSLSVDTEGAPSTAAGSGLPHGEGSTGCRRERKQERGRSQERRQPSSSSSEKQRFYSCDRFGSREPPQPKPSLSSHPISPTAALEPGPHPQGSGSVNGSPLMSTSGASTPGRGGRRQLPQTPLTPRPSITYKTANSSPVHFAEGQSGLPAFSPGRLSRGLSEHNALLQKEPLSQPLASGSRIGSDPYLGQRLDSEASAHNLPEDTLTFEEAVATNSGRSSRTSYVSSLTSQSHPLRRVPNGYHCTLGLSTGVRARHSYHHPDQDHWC
UniProt Q9GZZ6, whole entry, looked up: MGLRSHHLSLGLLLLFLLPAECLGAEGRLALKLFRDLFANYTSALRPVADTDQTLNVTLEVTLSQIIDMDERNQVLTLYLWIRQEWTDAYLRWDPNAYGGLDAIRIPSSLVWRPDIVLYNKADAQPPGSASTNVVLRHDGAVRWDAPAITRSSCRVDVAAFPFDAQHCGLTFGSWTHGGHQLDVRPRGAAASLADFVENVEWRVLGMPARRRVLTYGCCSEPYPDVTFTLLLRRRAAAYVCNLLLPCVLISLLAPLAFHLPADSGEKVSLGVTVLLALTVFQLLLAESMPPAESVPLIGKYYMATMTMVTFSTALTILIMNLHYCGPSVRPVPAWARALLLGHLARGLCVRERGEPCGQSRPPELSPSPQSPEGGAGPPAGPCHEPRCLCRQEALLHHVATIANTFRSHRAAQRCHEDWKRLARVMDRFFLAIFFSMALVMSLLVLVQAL
UniProt Q9UGM1, whole entry, looked up: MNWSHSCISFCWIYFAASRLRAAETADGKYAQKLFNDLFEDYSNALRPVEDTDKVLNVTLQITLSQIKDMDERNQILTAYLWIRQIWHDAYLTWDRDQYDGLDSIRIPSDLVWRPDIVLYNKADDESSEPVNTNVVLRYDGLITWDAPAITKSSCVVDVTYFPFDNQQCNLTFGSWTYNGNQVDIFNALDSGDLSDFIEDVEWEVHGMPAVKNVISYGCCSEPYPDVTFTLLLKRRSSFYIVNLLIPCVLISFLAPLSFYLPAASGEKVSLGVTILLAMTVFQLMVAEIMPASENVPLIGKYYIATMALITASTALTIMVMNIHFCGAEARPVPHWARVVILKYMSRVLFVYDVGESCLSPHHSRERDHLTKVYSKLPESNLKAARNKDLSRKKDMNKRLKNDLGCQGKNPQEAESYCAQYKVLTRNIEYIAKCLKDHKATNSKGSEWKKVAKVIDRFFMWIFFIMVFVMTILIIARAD
UniProt P54634, whole entry, looked up: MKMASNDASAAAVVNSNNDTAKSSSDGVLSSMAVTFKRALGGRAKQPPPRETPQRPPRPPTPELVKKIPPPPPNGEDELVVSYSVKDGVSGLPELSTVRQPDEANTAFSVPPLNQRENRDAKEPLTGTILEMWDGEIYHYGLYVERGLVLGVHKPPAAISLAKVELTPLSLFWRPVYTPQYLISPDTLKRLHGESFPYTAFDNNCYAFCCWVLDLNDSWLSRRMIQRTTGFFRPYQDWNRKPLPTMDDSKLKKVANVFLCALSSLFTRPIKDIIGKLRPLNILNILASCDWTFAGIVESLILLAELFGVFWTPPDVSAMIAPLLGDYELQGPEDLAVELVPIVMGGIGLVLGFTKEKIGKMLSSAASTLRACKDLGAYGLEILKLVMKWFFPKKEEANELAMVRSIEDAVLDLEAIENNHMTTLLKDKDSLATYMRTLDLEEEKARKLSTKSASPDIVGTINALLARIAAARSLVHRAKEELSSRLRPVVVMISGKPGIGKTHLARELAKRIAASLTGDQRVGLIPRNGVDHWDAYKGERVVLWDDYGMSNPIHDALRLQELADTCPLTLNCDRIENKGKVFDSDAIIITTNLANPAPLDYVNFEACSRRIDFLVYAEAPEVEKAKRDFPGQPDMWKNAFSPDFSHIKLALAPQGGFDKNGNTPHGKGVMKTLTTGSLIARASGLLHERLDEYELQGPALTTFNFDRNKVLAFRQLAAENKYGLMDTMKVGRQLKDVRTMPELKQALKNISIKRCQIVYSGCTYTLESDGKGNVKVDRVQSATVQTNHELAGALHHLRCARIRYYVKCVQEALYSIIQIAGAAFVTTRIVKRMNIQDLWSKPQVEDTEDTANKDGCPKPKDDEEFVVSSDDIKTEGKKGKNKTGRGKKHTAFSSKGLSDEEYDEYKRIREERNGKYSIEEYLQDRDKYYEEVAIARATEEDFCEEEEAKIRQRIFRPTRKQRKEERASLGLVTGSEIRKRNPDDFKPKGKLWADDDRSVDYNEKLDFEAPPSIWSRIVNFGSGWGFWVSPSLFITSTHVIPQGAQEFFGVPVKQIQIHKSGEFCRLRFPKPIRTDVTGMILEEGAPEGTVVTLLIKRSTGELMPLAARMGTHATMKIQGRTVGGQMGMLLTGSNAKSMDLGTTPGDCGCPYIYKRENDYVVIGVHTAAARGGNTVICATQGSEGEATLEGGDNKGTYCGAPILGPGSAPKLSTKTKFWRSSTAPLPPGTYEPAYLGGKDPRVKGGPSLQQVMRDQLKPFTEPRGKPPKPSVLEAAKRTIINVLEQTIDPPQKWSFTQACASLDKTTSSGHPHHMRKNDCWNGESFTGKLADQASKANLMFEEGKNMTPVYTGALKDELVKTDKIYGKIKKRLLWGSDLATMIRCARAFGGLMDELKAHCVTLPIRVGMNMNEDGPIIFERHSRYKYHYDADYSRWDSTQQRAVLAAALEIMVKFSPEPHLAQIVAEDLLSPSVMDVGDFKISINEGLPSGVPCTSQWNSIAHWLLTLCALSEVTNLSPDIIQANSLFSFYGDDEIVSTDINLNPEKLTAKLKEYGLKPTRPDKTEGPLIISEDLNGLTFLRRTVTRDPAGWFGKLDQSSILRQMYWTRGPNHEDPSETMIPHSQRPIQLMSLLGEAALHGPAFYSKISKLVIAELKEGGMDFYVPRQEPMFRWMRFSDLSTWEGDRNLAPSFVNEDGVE
UniProt P17787, whole entry, looked up: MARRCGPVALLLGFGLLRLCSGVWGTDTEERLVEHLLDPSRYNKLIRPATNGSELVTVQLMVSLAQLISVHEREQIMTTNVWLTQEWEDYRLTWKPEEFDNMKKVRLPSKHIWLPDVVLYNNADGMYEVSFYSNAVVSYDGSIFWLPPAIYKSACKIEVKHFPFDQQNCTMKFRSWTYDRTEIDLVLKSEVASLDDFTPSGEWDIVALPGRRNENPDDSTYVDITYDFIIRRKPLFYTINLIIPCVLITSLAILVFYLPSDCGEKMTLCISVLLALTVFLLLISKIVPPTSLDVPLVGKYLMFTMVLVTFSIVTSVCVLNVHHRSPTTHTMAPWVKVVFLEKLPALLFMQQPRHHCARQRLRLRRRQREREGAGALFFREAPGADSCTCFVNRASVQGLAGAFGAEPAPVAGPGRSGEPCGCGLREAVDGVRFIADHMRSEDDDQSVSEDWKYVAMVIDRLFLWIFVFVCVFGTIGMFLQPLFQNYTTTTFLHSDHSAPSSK
UniProt P32297, whole entry, looked up: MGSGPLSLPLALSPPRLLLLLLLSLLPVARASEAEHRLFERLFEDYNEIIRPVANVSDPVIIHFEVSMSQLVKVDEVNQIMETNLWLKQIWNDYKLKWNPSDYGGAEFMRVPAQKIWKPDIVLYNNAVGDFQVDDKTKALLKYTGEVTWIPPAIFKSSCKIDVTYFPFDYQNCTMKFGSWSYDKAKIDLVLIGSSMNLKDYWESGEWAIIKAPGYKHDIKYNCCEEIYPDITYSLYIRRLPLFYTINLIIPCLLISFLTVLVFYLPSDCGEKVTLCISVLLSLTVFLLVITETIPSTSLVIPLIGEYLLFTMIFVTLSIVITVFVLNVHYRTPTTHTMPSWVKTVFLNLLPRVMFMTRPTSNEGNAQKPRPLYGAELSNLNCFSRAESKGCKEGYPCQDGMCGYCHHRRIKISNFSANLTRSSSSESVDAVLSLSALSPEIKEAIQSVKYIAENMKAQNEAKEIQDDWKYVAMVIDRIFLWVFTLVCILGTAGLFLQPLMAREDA

| SMILES | target | assay | system | conditions | IC50 [µM] |
| --- | --- | --- | --- | --- | --- |
| C[C@@H](O)[C@@H]1NC(=O)[C@H]2NC(=O)[C@@H](NC(=O)CN)CSSC[C@H](NC(=O)[C@H](CCCNC(=N)N)NC(=O)[C@@H]3CCCN3C(=O)[C@H](CC(=O)O)NC1=O)C(=O)N[C@@H](CCCNC(=N)N)C(=O)N[C@@H](Cc1ccc(O)c(I)c1)C(=O)N[C@@H](CCC(N)=O)C(=O)N[C@H](C(=O)N[C@H](CC(=O)N[C@@H](CCCCN)C(=O)O)Cc1ccc(O)cc1)CSSC2(C)C | Neuronal acetylcholine receptor; alpha9/alpha10 (Homo sapiens, UniProt Q9GZZ6+Q9UGM1) | ion current, antagonist, two-electrode voltage clamp | Xenopus oocytes | together with: 100 µM acetylcholine | 0.00034 |
| Cc1cc(C(=O)N[C@@H](Cc2cccc3ccccc23)C(=O)N[C@@H](CC(C)C)C(=O)N[C@H](C=O)C[C@@H]2CCCNC2=O)no1 | Genome polyprotein, 3C-like protease (Lordsdale virus, UniProt P54634) | enzyme activity | – | – | 0.32 ± 0.02 |
| CCOc1ccccc1-c1cc2n(n1)C(CS(C)(=O)=O)CNC2=O (stereo not shown) | Polyprotein P1234, nsP2 protease (Chikungunya virus, UniProt Q5XXP4) | FRET | – | – | > 200 |
| COc1cc(Cn2cnc3cc(C)c(C)cc32)c(Br)cc1Cl | Enoyl-[acyl-carrier-protein] reductase [NADH] (Francisella tularensis subsp. tularensis, UniProt Q5NGQ3) | – | – | – | > 100 |
| C[C@@H]1NC(=O)[C@@H]2CSSC[C@@H]3NC(=O)[C@H](CO)NC(=O)CNC(=O)[C@H]([C@@H](C)O)NC(=O)[C@H](CSSC[C@H](N)C(=O)N[C@@H](CCCCN)C(=O)N[C@@H](CCCNC(=N)N)C(=O)N[C@@H](CCCCN)C(=O)NCC(=O)N[C@@H](CO)C(=O)N[C@@H](CO)C(=O)N2)NC(=O)[C@H](CSSC[C@@H](C(N)=O)NC(=O)[C@H](CCCCN)NC(=O)CNC(=O)[C@H](CC(N)=O)NC(=O)[C@H](CCCNC(=N)N)NC3=O)NC(=O)[C@H](CC(=O)O)NC(=O)[C@H](Cc2ccc(O)cc2)NC(=O)[C@H](CO)NC(=O)[C@H]([C@@H](C)O)NC(=O)[C@H](CCCNC(=N)N)NC1=O | Cacna1b with α2δ, β3 subunits | Ba2+ current, inhibitor, whole-cell patch clamp | HEK293 expressing α2δ and β3 | 22 °C, together with: Ba2+ 20 mM | 0.418 |
| O=C(O)COc1c(SSc2cnn(-c3ccccc3)c(=O)c2OCC(=O)O)cnn(-c2ccccc2)c1=O | Sortase A (Bacillus anthracis str. H9401, UniProt P0DPQ5) | inhibitor | Bacillus anthracis | – | 0.49 ± 0.19 |
| CC[C@H](C)[C@H](NC(=O)[C@H](C)NC(=O)[C@H](CCC(=O)O)NC(=O)[C@H](CCC(=O)O)NC(=O)[C@H](CC(C)C)NC(=O)[C@H](CCCCN)NC(=O)[C@H](CCCCN)NC(=O)[C@H](CCSC)NC(=O)[C@H](CCC(=O)O)NC(=O)[C@H](Cc1ccc(O)cc1)NC(=O)[C@H](CCC(=O)O)NC(=O)[C@H](CC(C)C)NC(=O)[C@H](CC(=O)O)NC(=O)[C@H](CC(C)C)NC(=O)[C@H](Cc1ccccc1)NC(=O)[C@H](Cc1ccc(O)cc1)NC(=O)[C@@H](NC(=O)[C@H](CC(N)=O)NC(=O)[C@@H](NC(=O)[C@H](CCC(N)=O)NC(=O)[C@H](CC(=O)O)NC(=O)[C@H](CC(C)C)NC(=O)[C@@H](N)CO)[C@@H](C)CC)C(C)C)C(=O)N[C@@H](CCCCN)C(=O)N[C@@H](CCCCN)C(=O)N[C@@H](CC(C)C)C(=O)N[C@@H](CCC(=O)O)C(=O)N[C@@H](CCC(=O)O)C(=O)N[C@@H](CO)C(=O)N[C@@H](Cc1ccc(O)cc1)C(=O)N[C@H](C(=O)N[C@@H](CC(=O)O)C(=O)N[C@@H](CC(C)C)C(=O)N[C@@H](CCCCN)C(=O)N[C@@H](CCC(=O)O)C(=O)N[C@@H](CC(C)C)C(=O)O)[C@@H](C)CC | Spike glycoprotein (MERS-CoV, UniProt K9N5Q8) | cell-cell fusion, inhibitor, luciferase fusion | 293T donor, Huh-7 target | 16 h, 37 °C | 0.894 |
| c1cc2c(nc1N1CCOCC1)sc1c(N3CCNCC3)nnnc12 | Beta-glucuronidase (bglR, Clostridium perfringens, UniProt Q8XP19) | enzyme activity, inhibitor | – | – | 0.02 ± 0.01 |
| CC[C@H](C)[C@H](NC(=O)[C@H](C)NC(=O)[C@H](CCC(=O)O)NC(=O)[C@H](CCC(=O)O)NC(=O)[C@H](CC(C)C)NC(=O)[C@H](CCCCN)NC(=O)[C@H](CCCCN)NC(=O)[C@H](CCSC)NC(=O)[C@H](CCC(=O)O)NC(=O)[C@H](Cc1ccc(O)cc1)NC(=O)[C@H](CCC(=O)O)NC(=O)[C@H](CC(C)C)NC(=O)[C@H](CC(=O)O)NC(=O)[C@H](CC(C)C)NC(=O)[C@H](Cc1ccccc1)NC(=O)[C@@H](NC(=O)[C@@H](NC(=O)[C@H](CC(N)=O)NC(=O)[C@@H](NC(=O)[C@H](CCC(N)=O)NC(=O)[C@H](CC(=O)O)NC(=O)[C@H](CC(C)C)NC(=O)[C@@H](N)CO)[C@@H](C)CC)C(C)C)[C@@H](C)O)C(=O)N[C@@H](CCCCN)C(=O)N[C@@H](CCCCN)C(=O)N[C@@H](CC(C)C)C(=O)N[C@@H](CCC(=O)O)C(=O)N[C@@H](CCC(=O)O)C(=O)N[C@@H](CO)C(=O)N[C@@H](Cc1ccc(O)cc1)C(=O)N[C@H](C(=O)N[C@@H](CC(=O)O)C(=O)N[C@@H](CC(C)C)C(=O)N[C@@H](CCCCN)C(=O)N[C@@H](CCC(=O)O)C(=O)N[C@@H](CC(C)C)C(=O)O)[C@@H](C)CC | Spike glycoprotein Beta variant | cell-cell fusion, inhibitor, luciferase fusion | 293T donor, Huh-7 target | 16 h, 37 °C, dual mutations | 0.321 |
| O=C(NCc1ccccc1)C1C(=O)N(O)C(=O)c2cc([N+](=O)[O-])ccc21 (stereo not shown) | Nucleoprotein, exonuclease domain (N, Machupo virus, UniProt P26578) | inhibitor | – | – | 13.6 |
| CC[C@H](C)[C@H](NC(=O)[C@H](C)NC(=O)[C@H](CCC(=O)O)NC(=O)[C@H](CCC(=O)O)NC(=O)[C@H](CC(C)C)NC(=O)[C@H](CCCCN)NC(=O)[C@H](CCCCN)NC(=O)[C@H](CCSC)NC(=O)[C@H](CCC(=O)O)NC(=O)[C@H](Cc1ccc(O)cc1)NC(=O)[C@H](CCC(=O)O)NC(=O)[C@H](CC(C)C)NC(=O)[C@H](CC(=O)O)NC(=O)[C@H](CC(C)C)NC(=O)[C@H](Cc1ccccc1)NC(=O)[C@H](Cc1ccccc1)NC(=O)[C@@H](NC(=O)[C@H](CC(N)=O)NC(=O)[C@@H](NC(=O)[C@H](CCC(N)=O)NC(=O)[C@H](CC(=O)O)NC(=O)[C@H](CC(C)C)NC(=O)[C@@H](N)CO)[C@@H](C)CC)C(C)C)C(=O)N[C@@H](CCCCN)C(=O)N[C@@H](CCCCN)C(=O)N[C@@H](CC(C)C)C(=O)N[C@@H](CCC(=O)O)C(=O)N[C@@H](CCC(=O)O)C(=O)N[C@@H](CO)C(=O)N[C@@H](Cc1ccc(O)cc1)C(=O)N[C@H](C(=O)N[C@@H](CC(=O)O)C(=O)N[C@@H](CC(C)C)C(=O)N[C@@H](CCCCN)C(=O)N[C@@H](CCC(=O)O)C(=O)N[C@@H](CC(C)C)C(=O)O)[C@@H](C)CC | Spike glycoprotein Beta variant | cell-cell fusion, inhibitor, luciferase fusion | 293T donor, Huh-7 target | 16 h, 37 °C | 0.121 |
| CC(C)C[C@@H]1NC(=O)[C@H](CCCNC(=N)N)NC(=O)[C@H](CCCNC(=N)N)NC(=O)[C@@H]2CSSC[C@@H]3NC(=O)[C@H](CO)NC(=O)CNC(=O)[C@H]([C@@H](C)O)NC(=O)[C@H](CSSC[C@H](N)C(=O)N[C@@H](CCCCN)C(=O)N[C@@H](CCCNC(=N)N)C(=O)N[C@@H](CCCCN)C(=O)NCC(=O)N[C@@H](CO)C(=O)N[C@@H](CO)C(=O)N2)NC(=O)[C@H](CSSC[C@@H](C(N)=O)NC(=O)[C@H](CCCCN)NC(=O)CNC(=O)[C@H](CC(N)=O)NC(=O)[C@H](CCCNC(=N)N)NC3=O)NC(=O)[C@H](CC(=O)O)NC(=O)[C@H](Cc2ccc(O)cc2)NC(=O)[C@H](CO)NC1=O | Cacna1b with α2δ, β3 subunits | Ba2+ current, inhibitor, whole-cell patch clamp | HEK293 expressing α2δ and β3 | 22 °C, together with: Ba2+ 20 mM | 0.068 |
| CC[C@H](C)[C@H](NC(=O)[C@H](C)NC(=O)[C@H](CCC(=O)O)NC(=O)[C@H](CCC(=O)O)NC(=O)[C@H](CC(C)C)NC(=O)[C@H](CCCCN)NC(=O)[C@H](CCCCN)NC(=O)[C@H](CCSC)NC(=O)[C@H](CCC(=O)O)NC(=O)[C@H](Cc1ccc(O)cc1)NC(=O)[C@H](CCC(=O)O)NC(=O)[C@H](CC(C)C)NC(=O)[C@H](CC(=O)O)NC(=O)[C@H](CC(C)C)NC(=O)[C@H](Cc1ccccc1)NC(=O)[C@H](Cc1ccc(O)cc1)NC(=O)[C@@H](NC(=O)[C@H](CC(N)=O)NC(=O)[C@@H](NC(=O)[C@H](CCC(N)=O)NC(=O)[C@H](CC(=O)O)NC(=O)[C@H](CC(C)C)NC(=O)[C@@H](N)CO)[C@@H](C)CC)C(C)C)C(=O)N[C@@H](CCCCN)C(=O)N[C@@H](CCCCN)C(=O)N[C@@H](CC(C)C)C(=O)N[C@@H](CCC(=O)O)C(=O)N[C@@H](CCC(=O)O)C(=O)N[C@H](C(=O)N[C@@H](Cc1ccc(O)cc1)C(=O)N[C@H](C(=O)N[C@@H](CC(=O)O)C(=O)N[C@@H](CC(C)C)C(=O)N[C@@H](CCCCN)C(=O)N[C@@H](CCC(=O)O)C(=O)N[C@@H](CC(C)C)C(=O)O)[C@@H](C)CC)[C@@H](C)O | Spike glycoprotein (Severe acute respiratory syndrome coronavirus, UniProt P59594) | cell-cell fusion, inhibitor, luciferase fusion | 293T donor, Huh-7 target | 16 h, 37 °C, dual mutations | 0.0141 |
| CC[C@H](C)[C@@H]1NC(=O)[C@H](CCC(=O)O)NC(=O)[C@@H]2CCCN2C(=O)[C@H](Cc2c[nH]cn2)NC(=O)[C@H](CC(=O)O)NC(=O)[C@H](C(C)C)NC(=O)[C@H](CC(N)=O)NC(=O)[C@@H]2CSSC[C@H](NC(=O)[C@H](CCC(N)=O)NC(=O)[C@@H]3CCCN3C(=O)[C@@H](N)CCCNC(=N)N)C(=O)N[C@@H](CSSC[C@@H](C(N)=O)NC1=O)C(=O)N[C@@H](CO)C(=O)N[C@@H](Cc1c[nH]cn1)C(=O)N1CCC[C@H]1C(=O)N[C@@H](C)C(=O)N2 | Neuronal acetylcholine receptor; alpha3/beta2 (Homo sapiens, UniProt P17787+P32297) | ACh-evoked current, antagonist, two-electrode voltage clamp | Xenopus oocytes | 5 min, pH 7.4, holding potential -70 mV | 5.4 ± 0.5 |
| CC[C@H](C)[C@H](NC(=O)[C@H](C)NC(=O)[C@H](CCC(=O)O)NC(=O)[C@H](CCC(=O)O)NC(=O)[C@H](CC(C)C)NC(=O)[C@H](CCCCN)NC(=O)[C@H](CCCCN)NC(=O)[C@H](CCSC)NC(=O)[C@H](CCC(=O)O)NC(=O)[C@H](Cc1ccc(O)cc1)NC(=O)[C@H](CCC(=O)O)NC(=O)[C@H](CC(C)C)NC(=O)[C@H](CC(=O)O)NC(=O)[C@H](CC(C)C)NC(=O)[C@H](Cc1ccccc1)NC(=O)[C@@H](NC(=O)[C@@H](NC(=O)[C@H](CC(N)=O)NC(=O)[C@@H](NC(=O)[C@H](CCC(N)=O)NC(=O)[C@H](CC(=O)O)NC(=O)[C@H](CC(C)C)NC(=O)[C@@H](N)CO)[C@@H](C)CC)C(C)C)[C@@H](C)O)C(=O)N[C@@H](CCCCN)C(=O)N[C@@H](CCCCN)C(=O)N[C@@H](CC(C)C)C(=O)N[C@@H](CCC(=O)O)C(=O)N[C@@H](CCC(=O)O)C(=O)N[C@H](C(=O)N[C@@H](Cc1ccc(O)cc1)C(=O)N[C@H](C(=O)N[C@@H](CC(=O)O)C(=O)N[C@@H](CC(C)C)C(=O)N[C@@H](CCCCN)C(=O)N[C@@H](CCC(=O)O)C(=O)N[C@@H](CC(C)C)C(=O)O)[C@@H](C)CC)[C@@H](C)O | Spike glycoprotein (Severe acute respiratory syndrome coronavirus, UniProt P59594) | cell-cell fusion, inhibitor, luciferase fusion | 293T donor, Huh-7 target | 16 h, 37 °C | 0.298 |
| COc1ccc(CN2CCN(C(c3ccc(F)cc3)c3ccc(F)cc3)CC2)c(OC)c1OC | Replicase polyprotein 1ab, nsp14 (rep, Severe acute respiratory syndrome-related coronavirus, UniProt P0C6X7) | enzyme activity, inhibitor | – | – | 13.5 ± 2 |

For quick reference, copied from above:
| SMILES | target | assay | system | conditions | IC50 [µM] |
| --- | --- | --- | --- | --- | --- |
| C[C@@H]1NC(=O)[C@@H]2CSSC[C@@H]3NC(=O)[C@H](CO)NC(=O)CNC(=O)[C@H]([C@@H](C)O)NC(=O)[C@H](CSSC[C@H](N)C(=O)N[C@@H](CCCCN)C(=O)N[C@@H](CCCNC(=N)N)C(=O)N[C@@H](CCCCN)C(=O)NCC(=O)N[C@@H](CO)C(=O)N[C@@H](CO)C(=O)N2)NC(=O)[C@H](CSSC[C@@H](C(N)=O)NC(=O)[C@H](CCCCN)NC(=O)CNC(=O)[C@H](CC(N)=O)NC(=O)[C@H](CCCNC(=N)N)NC3=O)NC(=O)[C@H](CC(=O)O)NC(=O)[C@H](Cc2ccc(O)cc2)NC(=O)[C@H](CO)NC(=O)[C@H]([C@@H](C)O)NC(=O)[C@H](CCCNC(=N)N)NC1=O | Cacna1b with α2δ, β3 subunits | Ba2+ current, inhibitor, whole-cell patch clamp | HEK293 expressing α2δ and β3 | 22 °C, together with: Ba2+ 20 mM | 0.418 |
